Measurements of several laboratories.
Compare with care: the assays were run in different laboratories.
Technique: steady-state kinetics
B1: protein (Sinorhizobium meliloti, UniProt Q92WA3); chain MVAPRILVTGGAGYIGSHTAKLLRLEGIEPVVYDNLTTGNRSAVRWGPFVQGDILDGRRLIEVIEAHQPDAVIHFAASAYVGESVADPAKYYNNNVRGTLSLLDACRQTGVDKVIFSSSCATYGVPAVLPIDEATPQAPINPYGKTKLVAEHMLADYAAAFALNYVSLRYFNACGADPEGDLGEWHDPETHLIPRALMAAAGRIPHLEIFGEDYDTPDGTCVRDYIHVADLASAHVLAYRHLAKGGGNVALNLGTGRGFSIKEVLRTIGEITGHDVPVVFRRRRAGDPPALYADAGLACRTLGFLPRYSDLETIVRTAAPFFGLEVRS
B2: enzyme A178R/D177A/G159A/M179S/P184R (Levilactobacillus brevis, UniProt Q03Q85); chain MKVTVVGCTHAGTFAIKQILAEHPDAEVTVYERNDVISFLSCGIALYLGGKVADPQGLFYSSPEELQKLGANVQMNHNVLAIDPDQKTVTVEDLTNHAQTTESYDKLVMTSGSWPIVPKIPGIDSDRVKLCKNWAHAQALIEDAKEAKRITVIGAGYIAAELAEAYSTTGHDVTLIARSARVMRKYFDADFTDVIEQDYRDHGVQLALGETVESFTDSATGLTIKTDKNSYETDLAILCIGFRPNTDLLKGKVDMAPNGAIITDDYMRSSNPDIFAAGDSAAVHYNPTHQNAYIPLATNAVRQGILVGKNLVKPTVKYMGTQSSSGLALYDRTIVSTGLTLAAAKQQGLNAEQVIVEDNYRPEFMPSTEPVLMSLVFDPDTHRILGGALMSKYDVSQSANTLSVCIQNENTIDDLAMVDMLFQPNFDRPFNYLNILAQAAQAKVAQSVNA
B3: enzyme E323G (UniProt H9KVH3); chain ADASQIVSEMGAGWNLGNQLEAAVNGTPNETAWGNPTVTPELIKKVKAAGFKSIRIPVSYLNNIGSAPNYTINAAWLNRIQQVVDYAYNEGLYVIINIHGDGYNSVQGGWLLVNGGNQTAIKEKYKKVWQQIATKFSNYNDRLIFESMNEVFDGNYGNPNSAYYTNLNAYNQIFVDTVRQTGGNNNARWLLVPGWNTNIDYTVGNYGFTLPTDNYRSSAIPSSQKRIMISAHYYSPWDFAGEENGNITQWGATSTNPAKKSTWGQEDYLESQFKSMYDKFVTQGYPVVIGGFGSIDKTSYDSSNNVYRAAYAKAVTAKAKKYKMVPVYWDNGHNGQHGFALFNRSNNTVTQQNIINAIMQGMQ
B4: LYS1 C205S/D319A (Saccharomyces cerevisiae, UniProt P38998); chain MAAVTLHLRAETKPLEARAALTPTTVKKLIAKGFKIYVEDSPQSTFNINEYRQAGAIIVPAGSWKTAPRDRIIIGLKEMPETDTFPLVHEHIQFAHCYKDQAGWQNVLMRFIKGHGTLYDLEFLENDQGRRVAAFGFYAGFAGAALGVRDWAFKQTHSDDEDLPAVSPYPNEKALVKDVTKDYKEALATGARKPTVLIIGALGRSGSGAIDLLHKVGIPDANILKWDIKETSRGGPFDEIPQADIFINCIYLSKPIAPFTNMEKLNNPNRRLRTVVDVSADTTNPHNPIPIYTVATVFNKPTVLVPTTAGPKLSVISIAHLPSLLPREASEFFSHDLLPSLELLPQRKTAPVWVRAKKLFDRHCARVKRSSRL
B5: Nudt8 (Mus musculus, UniProt Q9CR24); chain MLPDGLSAEDEQRCRQLLARTTARLRSRPAAAAVLVPLCLVRGVPALLYTLRSSRLVGRHKGEVSFPGGKCDPDDQDVIHTALRETQEELGLEVPKEHVWGVLQPVYDREKATIVPVLANVGPLDLQSLRPNLEEVDEVFEMSLAHLLQTQNQGYTHFCQGGHFSYTLPVFLHGPHRVWGLTAVITELTLKLLAPGFYQPSLAVPELPRG
B6: enzyme E385A (Sinorhizobium meliloti, UniProt Q92UV7); chain MTNAEVTIAVRHEPMRIAGRLVDTDDRVEVRYPWNDTVVGTVPAGRAEHAREAFAIAAAYQPKLTRYERQKILLATAEALAARKEEISDVITLELGISKADSLYEVGRAFDVFTLAGQMCIRDDGEIFSCDLTPHGKARKIFTMREPLTAISAITPFNHPLNMVAHKVAPAIATNNCVVVKPTELTPMTALLLADILYEAGLPPEMLSVVTGWPADIGMEMITNPHVDLVTFTGSVPVGKLIAANAHYKRQVLELGGNDPLIILNDLSDDDLARAADLAVAGATKNSGQRCTAVKRILCQESVADRFVPLVLERAKRLRFGDPMDRSTDLGTVIHEKAAALFEERVMRAAEEGADILYHPGRSGALLPPIVVDRVPHQSDLVLEATFGPIIPIVRVPDDDDATITLSNSTAFGLSSGVCTNDYRRMQKYIAGLKVGTVNIWEVPGYRIEMSPFGGIKDSGNGYKEGVIEAMKSFTNVKTFSLPWP
B7: carbamoyl phosphate synthetase large subunit L720E (Escherichia coli, UniProt P00968); chain PKRTDIKSILILGAGPIVIGQACEFDYSGAQACKALREEGYRVILVNSNPATIMTDPEMADATYIEPIHWEVVRKIIEKERPDAVLPTMGGQTALNCALELERQGVLEEFGVTMIGATADAIDKAEDRRRFDVAMKKIGLETARSGIAHTMEEALAVAADVGFPCIIRPSFTMGGSGGGIAYNREEFEEICARGLDLSPTKELLIDESLIGWKEYEMEVVRDKNDNCIIVCSIENFDAMGIHTGDSITVAPAQTLTDKEYQIMRNASMAVLREIGVETGGSNVQFAVNPKNGRLIVIEMNPRVSRSSALASKATGFPIAKVAAKLAVGYTLDELMNDITGGRTPASFEPSIDYVVTKIPRFNFEKFAGANDRLTTQMKSVGEVMAIGRTQQESLQKALRGLEVGATGFDPKVSLDDPEALTKIRRELKDAGADRIWYIADAFRAGLSVDGVFNLTNIDRWFLVQIEELVRLEEKVAEVGITGLNADFLRQLKRKGFADARLAKLAGVREAEIRKLRDQYDLHPVYKRVDTCAAEFATDTAYMYSTYEEECEANPSTDREKIMVLGGGPNRIGQGIEFDYCCVHASLALREDGYETIMVNCNPETVSTDYDTSDRLYFEPVTLEDVLEIVRIEKPKGVIVQYGGQTPLKLARALEAAGVPVIGTSPDAIDRAEDRERFQHAVERLKLKQPANATVTAIEMAVEKAKEIGYPLVVRPSYVEGGRAMEIVYDEADLRRYFQTAVSVSNDAPVLLDHFLDDAVEVDVDAICDGEMVLIGGIMEHIEQAGVHSGDSACSLPAYTLSQEIQDVMRQQVQKLAFELQVRGLMNVQFAVKNNEVYLIEVNPRAARTVPFVSKATGVPLAKVAARVMAGKSLAEQGVTKEVIPPYYSVKEVVLPFNKFPGVDPLLGPEMRSTGEVMGVGRTFAEAFAKAQLGSNSTMKKHGRALLSVREGDKERVVDLAAKLLKQGFELDATHGTAIVLGEAGINPRLVNKVHEGRPHIQDRIKNGEYTYIINTTSGRRAIEDSRVIRRSALQYKVHYDTTLNGGFATAMALNADATEKVISVQEMHAQIK
UniProt P0AC23, sequence (whole entry, looked up): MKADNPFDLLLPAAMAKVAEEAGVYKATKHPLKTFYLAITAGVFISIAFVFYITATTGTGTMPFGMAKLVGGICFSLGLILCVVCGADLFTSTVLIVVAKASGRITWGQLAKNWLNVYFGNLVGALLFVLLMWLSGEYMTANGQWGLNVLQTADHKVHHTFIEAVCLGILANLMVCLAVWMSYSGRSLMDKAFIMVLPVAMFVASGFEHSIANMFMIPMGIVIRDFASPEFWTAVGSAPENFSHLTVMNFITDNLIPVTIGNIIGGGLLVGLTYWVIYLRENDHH
UniProt P19337, sequence (whole entry, looked up): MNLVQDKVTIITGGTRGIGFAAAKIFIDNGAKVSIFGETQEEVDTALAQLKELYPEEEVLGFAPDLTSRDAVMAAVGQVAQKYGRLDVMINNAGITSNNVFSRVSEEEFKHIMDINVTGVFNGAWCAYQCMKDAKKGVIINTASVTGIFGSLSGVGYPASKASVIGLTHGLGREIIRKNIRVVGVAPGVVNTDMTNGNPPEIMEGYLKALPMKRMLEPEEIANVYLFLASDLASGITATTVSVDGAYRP

| Molecule | substrate | pH | temperature | setting | together with | Km [µM] |
| --- | --- | --- | --- | --- | --- | --- |
| B1 (protein) | O=c1ccn([C@@H]2O[C@H](COP(=O)(O)OP(=O)(O)O[C@H]3OC[C@@H](O)[C@H](O)[C@H]3O)[C@@H](O)[C@H]2O)c(=O)[nH]1 | pH 7.6 | 37 °C |  | NAD+ 1 mM | 310 |
| BaiA2 (Clostridium scindens, UniProt P19337) | C[C@H](CCC(=O)SCCNC(=O)CCNC(=O)[C@H](O)C(C)(C)COP(=O)(O)OP(=O)(O)OC[C@H]1O[C@@H](n2cnc3c(N)ncnc32)[C@H](O)[C@@H]1OP(=O)(O)O)[C@H]1CC[C@H]2[C@@H]3CC[C@@H]4C[C@H](O)CC[C@]4(C)[C@H]3C[C@H](O)[C@]12C | pH 8.7 | 37 °C |  | NAD+ | 17 |
| B2 | NC(=O)C1=CN([C@@H]2O[C@H](COP(=O)(O)OP(=O)(O)OC[C@H]3O[C@@H](n4cnc5c(N)ncnc54)[C@H](O)[C@@H]3O)[C@@H](O)[C@H]2O)C=CC1 | pH 7.5 | 37 °C |  |  | 264 |
| B3 (enzyme E323G) | OC[C@H]1O[C@@H](O[C@H]2[C@@H](OC[C@H]3O[C@@H](O[C@H]4[C@H](O)[C@@H](O)[C@H](O[C@H]5[C@H](O)[C@@H](O)[C@@H](F)O[C@@H]5CO)O[C@@H]4CO[C@H]4OC[C@@H](O)[C@H](O)[C@H]4O[C@@H]4O[C@H](CO)[C@H](O)[C@H](O)[C@H]4O)[C@H](O)[C@@H](O)[C@@H]3O[C@@H]3O[C@H](CO[C@H]4OC[C@@H](O)[C@H](O)[C@H]4O)[C@@H](O)[C@H](O)[C@H]3O)OC[C@@H](O)[C@@H]2O)[C@H](O)[C@@H](O)[C@H]1O | pH 7.5 | 30 °C | apparent |  | 800 |
| B4 (LYS1 C205S/D319A) | NCCCC[C@H](N)C(=O)O | pH 7.2 | 25 °C |  | NADH and α-Kg | 1200 |
| B5 (Nudt8) | CCCCCC(=O)SCCNC(=O)CCNC(=O)[C@H](O)C(C)(C)COP(=O)(O)OP(=O)(O)OC[C@H]1O[C@@H](n2cnc3c(N)ncnc32)[C@H](O)[C@@H]1OP(=O)(O)O | pH 8.5 |  |  | 2 mM Mn2+ | 251 |
| protein (Carthamus tinctorius, UniProt A0A7S8BII6) | O=c1c(O)c(-c2ccc(O)cc2)oc2cc(O)cc(O)c12 | pH 8 | 40 °C | no added metal | UDP-glucose 0.8 mmol/L | 39.1 |
| B6 (enzyme E385A) | NC(=O)c1ccc[n+]([C@@H]2O[C@H](COP(=O)(O)OP(=O)(O)OC[C@H]3O[C@@H](n4cnc5c(N)ncnc54)[C@H](O)[C@@H]3O)[C@@H](O)[C@H]2O)c1 | pH 7.5 | 30 °C | cofactor varied |  | 370 |
| focA (Escherichia coli, UniProt P0AC23) | O=CO | pH 6.8 | 19 °C | apparent, not purified |  | 100000 |
| enzyme (Tetranychus urticae, UniProt T1KUK4) | O=c1ccn([C@@H]2O[C@H](CO[P@@](=O)(O)O[P@@](=O)(O)O[C@H]3O[C@H](CO)[C@@H](O)[C@H](O)[C@H]3O)[C@@H](O)[C@H]2O)c(=O)[nH]1 | pH 7.8 |  |  |  | 47 |
| LovD A190T/A86V/C40A/C60N/D12G/G275S (Aspergillus terreus) | CCC(C)(C)C(=O)SCCC(=O)OC |  | 25 °C | 10% DMSO | 2 mM MJA | 700 |
| B7 | Nc1ncnc2c1ncn2[C@@H]1O[C@H](COP(=O)(O)OP(=O)(O)OP(=O)(O)O)[C@@H](O)[C@H]1O | pH 7.6 |  | KCl 100 mM | glutamine 10 mM, ornithine 10 mM | 1700 |
